Measurements collected from several papers.
Numbers after ± are the reported error. In brackets after ≈: the same amount, converted by molar mass.
Organism: Enterococcus faecium

CC(=O)N[C@H]1[C@@H](O[C@@H]2O[C@H](C[C@@H](O)[C@H]3O[C@@H](n4ccc(=O)[nH]c4=O)[C@H](O)[C@@H]3O)[C@H](O)[C@H](O)[C@H]2NC(=O)/C=C/CCCCCCCCCC(C)C)O[C@H](CO)[C@@H](O)[C@@H]1O  MIC90 (resazurin microplate; NR-32065): 10.3 ± 0.246 µg/mL (≈ 12.4 µM)
CN[C@H](CC(C)C)C(=O)N[C@H]1C(=O)N[C@@H](CC(N)=O)C(=O)N[C@H]2C(=O)NC3C(=O)N[C@H](C(=O)N[C@H](C(=O)NCCC[N+](C)(C)C)c4cc(O)cc(O)c4-c4cc3ccc4O)[C@H](O)c3ccc(c(Cl)c3)Oc3cc2cc(c3OC2OC(CO)C(O)[C@H](O)[C@@H]2O[C@H]2CC(C)(NCc3ccc(-c4ccc(Cl)cc4)cc3)[C@H](O)[C@H](C)O2)Oc2ccc(cc2Cl)[C@H]1O (stereo partly drawn)  MIC (ATCC BAA-2317 VanA VRE; together with: POPE 100 µg/mL): 0.3 µg/mL
CC[C@H](C)[C@H](NC(=O)[C@H](C)NC(=O)[C@H](CCCCN)NC(=O)[C@H](CC(C)C)NC(=O)[C@H](C)NC(=O)[C@@H](NC(=O)[C@H](Cc1c[nH]cn1)NC(=O)[C@H](CC(C)C)NC(=O)[C@@H](NC(=O)[C@@H](NC(=O)[C@H](CCCCN)NC(=O)[C@H](C)NC(=O)[C@H](C)NC(=O)[C@H](CO)NC(=O)[C@H](CCCCN)NC(=O)[C@H](Cc1ccccc1)NC(=O)[C@@H](NC(=O)[C@H](CCCCN)NC(=O)[C@H](CC(C)C)NC(=O)[C@H](Cc1ccccc1)NC(=O)[C@H](CO)NC(=O)[C@H](CCCCN)NC(=O)[C@H](Cc1c[nH]c2ccccc12)NC(=O)[C@H](CCCCN)NC(C)=O)[C@@H](C)O)[C@@H](C)O)C(C)C)[C@@H](C)O)C(=O)N[C@@H](CO)C(=O)N[C@@H](CO)C(N)=O  MIC geometric mean (Enterococcus faecium; 40 strains): 11.3 µg/mL (≈ 3.86 µM)
C[C@@H](NC(=O)[C@@H](C)NC(=O)[C@H](CCCCNC(=O)c1ccc(NC(=O)CCl)cc1)NC(=O)c1ccc(NC(=O)CCl)cc1)C(=O)O  IC50 (cell growth; 24 h, together with: vancomycin 8 µg/mL): 48.1 µM
Cn1c(=O)ccc2ccc(F)c(CCNC[C@H]3CN(c4cnc5c(n4)NC(=O)CO5)C(=O)O3)c21  MIC90: 0.12 µg/mL (≈ 0.256 µM)
CCCCCCCCCC(=O)N[C@@H](Cc1c[nH]c2ccccc12)C(=O)N[C@H](CC(N)=O)C(=O)N[C@@H](CC(=O)O)C(=O)N[C@@H]1C(=O)NCC(=O)N[C@@H](CCCN)C(=O)N[C@@H](CC(=O)O)C(=O)N[C@H](C)C(=O)N[C@@H](CC(=O)O)C(=O)NCC(=O)N[C@H](CO)C(=O)N[C@@H]([C@H](C)CC(=O)O)C(=O)N[C@@H](CC(=O)c2ccccc2N)C(=O)O[C@@H]1C  MIC (resistant isolate; 16 h, together with: Ca2+ 2.5 mM): 4 µg/mL (≈ 2.47 µM)
C[C@@H](NC(=O)[C@@H](C)NC(=O)[C@H](CCCCNC(=O)c1cccc(S(=O)(=O)F)c1)NC(=O)c1cccc(S(=O)(=O)F)c1)C(=O)O  IC50 (cell growth; 24 h, together with: vancomycin 8 µg/mL): 14 µM
CO[C@H]1[C@H](O[C@H]([C@H]2O[C@@H](n3ccc(=O)[nH]c3=O)[C@H](O)[C@@H]2O)[C@H](NCCCNC(=O)[C@@H](NC(=O)[C@@H](NC(=O)N[C@H](C(=O)O)C(C)C)[C@@H]2CCN=C(N)N2)[C@@H](OC(=O)CCCCCCCCCCCCN(O)C(=N)N)C(C)C)C(=O)O)O[C@H](CN)[C@H]1O  MIC90 (resazurin microplate; NR-32065): 15.4 ± 0.335 µg/mL (≈ 12.7 µM)
CN[C@H](CC(C)C)C(=O)N[C@H]1C(=O)N[C@@H](CC(N)=O)C(=O)N[C@H]2C(=O)N[C@H]3C(=O)N[C@H](C(=O)N[C@H](C(=O)O)c4cc(O)cc(O)c4-c4cc3ccc4O)[C@H](O)c3ccc(c(Cl)c3)Oc3cc2cc(c3O[C@@H]2O[C@H](CO)[C@@H](O)[C@H](O)[C@H]2O[C@H]2C[C@](C)(N)[C@H](O)[C@H](C)O2)Oc2ccc(cc2Cl)[C@H]1O  MIC range (broth microdilution; VanA vancomycin-resistant clinical isolates): ≥ 32 µg/mL
